Measured values pooled from the literature.
Each numbered part is a random draw from the data of one study; scales do not carry over between parts. ± gives the spread as reported.

Sample 1
Target: Cyclin-dependent kinase 2, with cyclin A (CDK2, Homo sapiens, UniProt P24941)
Effect on: enzyme activity
Mode: inhibitor
| SMILES | IC50 [µM] |
| --- | --- |
| Cc1cccc(-c2ccc3nc(NC(=O)CC4CCCC4)nn3c2)c1 | > 100 |
| O=C(Nc1nc2ccc(-c3cccc4ccccc34)cn2n1)C1CCCCC1 | > 100 |
| Cc1cccc(-c2ccc3nc(NC(=O)CCC4CCCC4)nn3c2)c1 | > 100 |
| Cn1ccc2c(-c3ccc4nc(NC(=O)C5CCCCC5)nn4c3)cccc21 | > 100 |
| Cc1cccc(-c2ccc3nc(NC(=O)C4CCCCC4)nn3c2)c1 | > 100 |
| Cc1cccc(-c2ccc3nc(NC(=O)c4ccccc4)nn3c2)c1 | > 100 |
| COc1cc(-c2ccc3nc(NC(=O)C4CCCCC4)nn3c2)ccc1O | 0.36 |
| COc1ccc(-c2ccc3nc(NC(=O)C4CCCCC4)nn3c2)cc1C | > 100 |

Mixed results
TP53 M133L/N239Y/N268D/V203A/Y220C DNA-binding domain: Cellular tumor antigen p53, DNA-binding domain (TP53, Homo sapiens, UniProt P04637, M133L/N239Y/N268D/V203A/Y220C)
GRM2: Metabotropic glutamate receptor 2 (GRM2, Homo sapiens, UniProt Q14416)
UniProt Q14416, sequence (whole entry, looked up): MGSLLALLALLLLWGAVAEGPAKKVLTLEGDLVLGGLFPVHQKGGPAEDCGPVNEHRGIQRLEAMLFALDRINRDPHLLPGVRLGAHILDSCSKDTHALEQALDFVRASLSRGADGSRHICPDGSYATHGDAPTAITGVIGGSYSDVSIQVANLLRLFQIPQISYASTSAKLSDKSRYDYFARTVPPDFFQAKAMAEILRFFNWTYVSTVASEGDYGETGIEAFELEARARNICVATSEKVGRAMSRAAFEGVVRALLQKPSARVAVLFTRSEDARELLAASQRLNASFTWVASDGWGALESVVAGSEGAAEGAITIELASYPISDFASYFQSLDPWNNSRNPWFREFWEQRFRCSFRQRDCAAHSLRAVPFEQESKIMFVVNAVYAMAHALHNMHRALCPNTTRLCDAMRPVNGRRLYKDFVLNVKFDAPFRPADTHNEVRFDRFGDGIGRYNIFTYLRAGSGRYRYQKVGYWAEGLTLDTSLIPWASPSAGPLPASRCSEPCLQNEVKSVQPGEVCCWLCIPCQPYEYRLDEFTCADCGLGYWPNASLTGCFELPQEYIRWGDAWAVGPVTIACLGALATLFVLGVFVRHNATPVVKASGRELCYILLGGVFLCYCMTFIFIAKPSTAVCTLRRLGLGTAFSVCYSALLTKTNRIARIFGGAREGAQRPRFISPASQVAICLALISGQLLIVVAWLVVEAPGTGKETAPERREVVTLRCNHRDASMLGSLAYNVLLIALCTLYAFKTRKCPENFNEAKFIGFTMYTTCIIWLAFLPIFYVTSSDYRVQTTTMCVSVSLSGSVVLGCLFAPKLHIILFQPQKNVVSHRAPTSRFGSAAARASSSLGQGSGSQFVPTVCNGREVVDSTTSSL
| SMILES | target or system | test | system | setting | how to read | measurement | result |
| --- | --- | --- | --- | --- | --- | --- | --- |
| O=C(O)COc1ccc(Br)cc1/C=N/NC(=O)c1ccc(Cl)cc1 | – | Racine scale 0-5 | male mice, pilocarpine-induced seizures | oral, 20 mg/kg, 0.5 h after pilocarpine, unit not given, together with: pilocarpine 300 mg/kg i.p. | higher = more severe | seizure severity | 2.5 ± 0.53 |
| CCc1nc(C#N)c(Cl)nc1Cl | TP53 M133L/N239Y/N268D/V203A/Y220C DNA-binding domain | DSF | – | 1 mM, 30 min, 20 °C | – | delta Tm | -1.3 °C |
| Cc1ccc(Oc2ccc(-c3ccn4c(CC5CC5)nnc4c3C(F)(F)F)cc2F)c(C)n1 | – | – | rat Sprague Dawley male, brain | subcutaneous, 10 mg/kg, 1 h | – | brain concentration | 464 ng/g |
| N#Cc1cc(C(F)(F)F)c(Cl)nc1Cl | TP53 M133L/N239Y/N268D/V203A/Y220C DNA-binding domain | differential scanning fluorimetry | – | 250 µM, 24 h | – | ΔTm | 3 °C |
| Cc1ccc(C(=O)N/N=C/c2cc(Br)ccc2OCC(=O)O)cc1 | – | Racine scale 0-5 | male mice, pilocarpine-induced seizures | oral, 20 mg/kg, 1.5 h after pilocarpine, unit not given, together with: pilocarpine 300 mg/kg i.p. | higher = more severe | seizure severity | 2.3 ± 0.48 |
| N#Cc1c(-c2ccc(OCC3CC3)c(Cl)c2)ccn2c(CC(F)(F)F)cnc12 | GRM2 | agonist | – | no glutamate | – | EC50 | 1.7 µM |
| Cc1cc(C#N)cnc1F | TP53 M133L/N239Y/N268D/V203A/Y220C DNA-binding domain | DSF | – | 1 mM, 24 h, 20 °C | – | delta Tm | no effect |
| CCCCn1ccn2c(-c3ccc4[nH]ccc4c3)c(C)nc2c1=O | – | – | rat liver microsomes | 5 µM, 15 min | – | metabolized fraction | 97% |
| O=C(O)COc1ccccc1/C=N/NC(=O)CNc1ccc(Cl)cc1 | – | – | mouse, pilocarpine-induced seizures | oral, 20 mg/kg, together with: pilocarpine 300 mg/kg i.p. | – | latency to forelimb clonus | 12.4 ± 0.34 min |
| N#Cc1cnc(Br)cn1 | TP53 M133L/N239Y/N268D/V203A/Y220C DNA-binding domain | differential scanning fluorimetry | – | 250 µM, 24 h | – | ΔTm | 2.65 °C |
| O=C(O)COc1ccc(Br)cc1C=NNC(=O)Cc1ccccc1 (mixture of isomers) | – | – | mouse, pilocarpine-induced seizures | seizures | baseline: valproic acid | latency to seizure | 72.5 % prolongation |
| CCOCc1nnc2c(C(F)(F)F)c(-c3ccc4[nH]ccc4c3)ccn12 | GRM2 | GTPγS binding, positive allosteric modulator | – | together with: EC20 glutamate | baseline: control glutamate response | Emax | 269 ± 11% |
